Experimental data pooled from the literature.
Numbered parts are unrelated; each lists some results of a single study.

Block 1 — technique: RNA Bind-n-Seq; form: RNA; sample: in vitro; tested at: 365 nM; baseline: no-protein control; direction: higher = stronger binding
Target: RNA binding protein fox-1 homolog 2, RRM domain, GST-SBP tag (RBFOX2, Homo sapiens, UniProt O43251-10, residues 100-194)
Setting: natural RNA segment, single round, ends assumed
Shared flanks, not repeated: GGGAGUUCUACAGUCCGACGAUC … UGGAAUUCUCGGGUGCCAA
Residues (chain): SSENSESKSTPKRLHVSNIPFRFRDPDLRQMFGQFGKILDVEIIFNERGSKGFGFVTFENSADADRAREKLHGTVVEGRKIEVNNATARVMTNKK
Sequence | RBNS enrichment (R)
CAGCCCGAGGCACUGCUACGCCAGCAGCUGCCACAUGGGAUGGUGGCUCAGGCGCUCCCUCCAGGAUUCUGCCCCUGCCUGUCCACAGACUCCUUUGUGCUGGAACCUGG | 0.835
UGUGGGAGCUCAGCUCGCUGCCCAGGGAUAGGUAUGACCUAUGUCUGCCUUAGGCUGCUGGGAGAUGCCAUUCUCCAGUUUCAGAAGCAGGCAGGGCAAAGGUCAAGACU | 0.292
UUUUUUUGAGACGGAGUUUUGCUCUUGUUACCCAGGCUGGAGUGCAGUGGCGUGAUCUUGGCUCACUGCAACUUCCGUCUCCCGGGUUCAAGUGAUUCUCCUGCCUCAGC | 0.553
CUGUGUGGACAUUGUUUGAGGAGCUAGAAAGAAGAUCGGCUGGGGAUCACGAGCCCCUACUUCCCAAAGAAUAAAUGGGCUUAGUGAUCAAGGUUCUUCAAGGGGUCUUU | 0.58
GCUACGUCUGCUGUAGUUCCAUUUUGUAUGUUGUGUAAAGCGAGCAUCGAUCGAAGCAAAAGGUGAUGUGUGUAUAUCAGAAAAAAGAAAUUAACUGUAUAUCAUUCCAG | 1.82
GAAGUCUGAACAGUCUGGAGCCAAUAGAAGCCAUCAGCCUGCUGCCUAUCUCCCAUAGCCAUUGCUGGCCACCCCUCUCUGUCAAUCUGUGCGCUCUUUUGAUACAUACA | 0.51
UGUUUAGUGGGCACAAGCUGUAAUAUUCAGCAAAACUUUGUCGACUGGCACUGUUUACAAGUCUGUUAGCUGCAUAAGCUCAAUAAAAAGUUGGUCUGGGCAUUACAUCC | 0.247
CAAAGGAUGCAUACAGGAUAUUUUGGAGCAUCAUCCUCGAAGAAAAGUCAGUUAAACCAUUUAGUUCAUCAGGAAUAUUUAAAAUAUUCUGCAUGAAUCCGUGUGGCUGU | 0.351
CACCAGCUUUCCAAAUGCACUCUGCUUGUGUUGAAAUUCUCCCAUUUUUAUUUGGGCAUAAAAGUUGUUGCCUUUAUUUGUAAAGCUGUUAUAAAUAUAUAUUAUAUAAA | 2.33
AGUGGAAUGAAGAGGGGGCAGGAAGCAGCCCCAGCCCAGGCCUCCAGCCCGUCCGCCUCACCUUCCCGCUAGACUAUCACCUUAACCAACCUUUCCUCUUUGUUCUGAGG | 0.388
AUUACUUUAACUAUUGUUAUAAAAAGCCUGCCAUUUUUAAUAUGUGGUUUGGGGGAUUUUUGUUUGUUUUUCCUGUUUGGGGGUUUUGUUUGUUGUUUUGGUUUUUUUUG | 4.36
GGGAGAUAAUUAUCAGUCAUGAGGAAAGACACAGAUUUCGGUCAUAAAGAAUGUAAGGGCUAUAAGUAGAAACUUUCUAUAACCUAAAUGAUGUUAUAGAAUUAUUUUUG | 3.6

Block 2 — technique: protein-binding microarray; form: double-stranded DNA, one strand shown; sample: in vitro; tested at: 250 nM; setting: 60-bp whole probe; added: salmon DNA 0.4 mg/ml; baseline: random background probes; direction: higher = stronger binding; shared flanks, not repeated: GCCTAGCAC … GTCTTGATTCGCTTGACGCTGCTG
Target: Interferon regulatory factor 5, full length, phosphomimetic (IRF5, Homo sapiens, UniProt Q13568-2, residues 1-514, K96S/S451D/S453D/S456D/S462D)
Sequence | log fluorescence [z-score]
GACGGACTGCTACTGCTTACGTGCTAG | -0.301
TTAGGACTGCGACTGGGTTAGTGCTAG | -0.607
TTAGGGATCGGGTTTCGGTTAGTGCTA | 7.61
TTAGGTATCGGGACTCGGTTAGTGCTA | 1.83
TTGGGACTGGGTCTCGGTTAGTGCTAG | -0.225
GACGGACTGGGGACTGGGGATGTGCTA | -0.545
GACGATTTCAGTCTCGAGAGGTGCTAG | 1.09
TGAGCATACCATATCAGAAAGTGCTAG | 0.523
CCCCTCTTCTGGATCTCAGAGTGCTAG | -0.362
TTAAGTATCCTTTTCCTTTAGTGCTAG | 1
GACGGACTGAACTATCGGGACGTGCTA | 0.882
CACGATTTCAGACTGGAGACGTGCTAG | 0.258
GACGGACTGGGACTGGGGTCGTGCTAG | -0.28
GACGCACTGAGTCTCGAGACGTGCTAG | -0.257
GAAGGTCTCGGTATCGGGACGTGCTAG | 1.17
TTAGATCTCATACTGGATTAGTGCTAG | 0.168
GACGGTATCGGGTATCAGGACGTGCTA | 3.24
GACGATGTCAGTCTCGAGACGTGCTAG | -0.19
TCAACTTCCCAATTGTCACTGTGCTAG | 0.239
TCATTTATGTACTCTCTAACTGTGCTA | 0.839

Block 3 — technique: protein-binding microarray; form: double-stranded DNA, one strand shown; sample: in vitro; tested at: not given; direction: higher = stronger binding
Target: Max dimerization protein 1, bHLH-zipper, MAX partner unstated (MXD1, Homo sapiens, UniProt Q05195, residues 56-136)
Setting: k-mer, scored over probes, only values ≥0.25
Construct (chain): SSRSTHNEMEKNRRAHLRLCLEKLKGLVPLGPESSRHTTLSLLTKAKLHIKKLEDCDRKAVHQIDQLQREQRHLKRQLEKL
Sequence | E-score
ACCAGCAT | 0.254
AATGTGGT | 0.281
GCGTGTAC | 0.383
CACGCACA | 0.307
CGTGGTAG | 0.282
CCGCCTCA | 0.26
ATGGGGAG | 0.322
CTCCCCAA | 0.326
CCATGCTA | 0.276
GTGGCGCA | 0.283
CATGCTTC | 0.419
CCACGCAA | 0.252
GGCGTGGA | 0.333
GCACGCCA | 0.259
AGCATGGA | 0.409
CGTCCACG | 0.294
AGACGCAT | 0.271
ACGTGCCC | 0.397
CATTGCAC | 0.268
CCACACCC | 0.292
CCACGTCA | 0.255

Block 4 — technique: universal PBM; form: double-stranded DNA, one strand shown; sample: in vitro; tested at: 600 nM; direction: higher = stronger binding
Target: Sal-like protein 4, full length isoform A (SALL4, Homo sapiens, UniProt Q9UJQ4, residues 1-1053)
Sequence of UniProt Q9UJQ4 (whole entry, looked up): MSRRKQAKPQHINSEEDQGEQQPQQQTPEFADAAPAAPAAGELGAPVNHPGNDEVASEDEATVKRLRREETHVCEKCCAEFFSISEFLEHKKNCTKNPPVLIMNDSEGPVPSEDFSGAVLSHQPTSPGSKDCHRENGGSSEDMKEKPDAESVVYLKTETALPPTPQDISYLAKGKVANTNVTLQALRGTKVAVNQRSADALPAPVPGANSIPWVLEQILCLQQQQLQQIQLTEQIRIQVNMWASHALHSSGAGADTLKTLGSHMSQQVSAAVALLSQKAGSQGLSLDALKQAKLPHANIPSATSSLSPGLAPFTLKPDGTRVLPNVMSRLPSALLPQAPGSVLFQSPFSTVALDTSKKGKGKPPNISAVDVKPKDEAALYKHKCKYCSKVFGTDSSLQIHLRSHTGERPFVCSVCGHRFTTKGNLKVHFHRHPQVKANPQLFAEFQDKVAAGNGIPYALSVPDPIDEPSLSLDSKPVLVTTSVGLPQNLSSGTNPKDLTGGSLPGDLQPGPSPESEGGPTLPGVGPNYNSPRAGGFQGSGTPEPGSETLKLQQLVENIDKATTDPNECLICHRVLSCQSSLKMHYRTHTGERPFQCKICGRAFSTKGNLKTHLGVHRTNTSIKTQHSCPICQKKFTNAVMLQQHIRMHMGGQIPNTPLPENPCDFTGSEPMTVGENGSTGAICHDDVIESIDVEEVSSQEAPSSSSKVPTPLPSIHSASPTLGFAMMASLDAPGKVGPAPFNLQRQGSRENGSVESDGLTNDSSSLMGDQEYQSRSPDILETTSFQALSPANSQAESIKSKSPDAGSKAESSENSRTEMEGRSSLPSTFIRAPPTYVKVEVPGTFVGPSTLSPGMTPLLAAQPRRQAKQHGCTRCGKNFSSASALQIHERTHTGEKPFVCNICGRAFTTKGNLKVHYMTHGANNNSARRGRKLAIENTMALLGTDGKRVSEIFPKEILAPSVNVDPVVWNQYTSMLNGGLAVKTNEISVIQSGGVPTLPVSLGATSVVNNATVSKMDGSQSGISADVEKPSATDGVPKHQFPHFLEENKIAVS
Setting: 8-mer, flanks averaged, mean of replicates
Sequence | E-score
AATATGAC | 0.355
GCAGCAAA | -0.06
CCGTCGCC | -0.332
GCTACCAA | 0.0536
CCTGCTCA | -0.137
AAGCCTGG | -0.256
AACTAATT | 0.197
CCTGATGA | -0.0673
AAGTACGT | 0.118
CATGATTC | -0.0224
AGCCCTTA | -0.0412
AGCAACCG | -0.0982
CCTTGCGC | -0.213
ATAGCGCA | 0.167
AGGACCGG | -0.403
ACGCCGAC | -0.248
ACCGTTCC | -0.105
CGAGTAAA | 0.112
AAACCACA | 0.113
CTGAAAAG | 0.0185
CGAGTGCC | -0.271
GCGAGCGA | -0.187
AGCTAGAG | -0.0431
CCACGGCC | -0.365
GGTAGAGA | -0.091

Block 5 — technique: RNA Bind-n-Seq; form: RNA; sample: in vitro; tested at: 200 nM; setting: whole 134-nt RNA, ends assumed; added: 150 mM LiCl; baseline: input library; direction: higher = stronger binding; library: 7-deaza-guanosine replaces G
Target: Fragile X messenger ribonucleoprotein 1, C-terminal low-complexity region (Fmr1, Mus musculus, UniProt P35922)
Shared flanks, not repeated: GGGAGUUCUACAGUCCGACGAUC … UGGAAUUCUCGGGUGUCAAGG
Sequence | log2 enrichment
AAGUCCUGUGCUACACAUCGUAUGUACCGAAUCGGGAAAGGGUGGGAAAAAAAGGGAAAGUAUUAUGUUACGCCGUUCGGAUCUGCACUU | -1.07
CAAGUCCUGUGCUACACAUCGUAUGUACCGAAUCGGGUUUGGGUUUGGGAAAGGGAAAGUAUUAUGUUACGCCGUUCGGAUCUGCACUUC | -1.22
GCAGGAAGUAAAAACAAAUGGAAAUGCUUCGGAUAGUGGCAGGGGUGGGGGUUGCUCAGGAAAGGGUGGGAUGGGAGUGGGUAAAGAGUU | 1.49
CAAGUCCUGUGCUACACAUCGUAUGUACCGAAUCGGGCCCGGGCCCGGGCCCGGGAAAGUAUUAUGUUACGCCGUUCGGAUCUGCACUUC | -2.52
CAAGUCCUGUGCUACACAUCGUAUGUACCGAAUCGGCCCGGGGCCCGGGGCCCGGGAAAGUAUUAUGUUACGCCGUUCGGAUCUGCACUU | -1.4
AAGUCCUGUGCUACACAUCGUAUGUACCGAAUCGGGGUUUUGGGUUUUGGUUUUGGAAAGUAUUAUGUUACGCCGUUCGGAUCUGCACUU | -2.19
ACCAUGCAGGUGGGCAUCUUUGGGAAGUGGGGCAAGGGGGGGAUAGGGAGGGGGGUAACACUUUGGGAACAGGUGGACCCAGGUCGUUUC | 1.54
UGGGCGGCUGCGAGAUGAGAACGGACGACCCUACUCGCCCAGUCAGUAUGCGCUCCAGUACGCCGGGGACGGCAGUGUCCUCCUCAUCCC | 0.0566
GCAGGAGGUAAAAACAAAUGGAAAUGCUUCGGAUAGUGGCAGGGGUGGGGGUUGCUAAGGAAAGGGUGGGAUGGGAGUGGGUAAAGAGUU | 1.63
ACAAAGCAGGUGGGCAUCUUUGGGAAGUGGGGCAAGGGGGGGAUAGGGAGGGGGGUAACACUUUGGGAACAGGUGGUCCCAGGUCGUUUC | 1.23
CACAGACAACACGCACCCACACAGACACAGAGGGAAGGGGUUGGGAUGGGGACAGGAUGCACAGCAGGGCGGGGUAGGACCCCAGCCCCU | 0.311
